Measured values gathered from unrelated publications.
Every numbered part comes from another study and shows a few of its results, in no order. Substitutions count along the parent as printed.

Block 1 — read-out: peptide-MHC binding; form: peptide; tested at: concentration not given
Target: HLA class I histocompatibility antigen, A alpha chain, allele A*26:03 (Homo sapiens, UniProt P04439)
Molecule | binding
THYSGNIVH | inactive
KRINSLIKY | inactive
MKWMMAMKY | inactive
KGHLPLLDK | inactive
FQVNRFTGY | inactive
FEIGNGDAG | inactive
IHSDQLSKF | inactive
YMGLVKKAK | inactive
FMKVKFEAL | inactive
DFGYATMAK | inactive
AEILSGRVI | inactive
VYSFDESSF | inactive
QTWHGDAPY | inactive
VMAASGAPF | inactive
EFKRRLKDL | inactive
IATLYCVHQR | inactive
HEVHAVWPG | inactive
LFLSFCSLF | inactive
ETPGSTDNY | inactive
YGIGVGSGY | inactive
YWMGGTTYF | inactive
EIIWPDRQM | inactive
ETIGLVRAL | active
IIGLLKIFR | inactive
AVFDSFVER | inactive

Block 2 — target: CCND3, cyclin fold, Cln2 fusion (human); method: yeast growth competition, sequencing; sample: yeast; notes: weak parent motif; relative to: not given; reading: higher = stronger binding
Starting sequence: viral docking peptide; YKVKRRLVFGADD; partner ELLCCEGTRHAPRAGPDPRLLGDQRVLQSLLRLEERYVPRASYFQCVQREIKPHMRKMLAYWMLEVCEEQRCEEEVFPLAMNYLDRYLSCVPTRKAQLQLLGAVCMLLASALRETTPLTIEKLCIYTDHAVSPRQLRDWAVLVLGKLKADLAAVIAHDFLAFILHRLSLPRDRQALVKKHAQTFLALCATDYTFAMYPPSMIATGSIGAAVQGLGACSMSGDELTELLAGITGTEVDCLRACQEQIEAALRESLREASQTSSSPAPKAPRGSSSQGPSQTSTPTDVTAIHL
Variant | normalised enrichment score
YKVKRWLVFGADD [R6W] | -0.00227
YTVKRRLVFGADD [K2T] | 0.383
YKVKRRLAFGADD [V8A] | 0.226
YKVKRRLVFGSDD [A11S] | 0.275
YKVKRRLVHGADD [F9H] | 0.381
YKVKWRLVFGADD [R5W] | -0.249
YKVKRRLVFPADD [G10P] | 0.365
YKVKRRKVFGADD [L7K] | -0.178
YKNKRRLVFGADD [V3N] | -0.0489
YKVKRRRVFGADD [L7R] | 0.0363
YKLKRRLVFGADD [V3L] | 0.633
YKKKRRLVFGADD [V3K] | 0.0758
YKVKRPLVFGADD [R6P] | 0.299
YKVKRRLVFGAGD [D12G] | 0.305
YKVKRRYVFGADD [L7Y] | -0.0935
YKVKRRTVFGADD [L7T] | 0.296
YKVKRRLYFGADD [V8Y] | 0.286

Block 3 — method: RNA Bind-n-Seq; form: RNA; sample: in vitro; tested at: 90 pmol; notes: 4-mer, random 30-nt RNA, single round; relative to: input library; reading: higher = stronger binding
Target: Eukaryotic initiation factor 4A-I (EIF4A1, Homo sapiens, UniProt P60842, residues 1-406, full length assumed)
Chain of UniProt P60842 (whole entry, looked up): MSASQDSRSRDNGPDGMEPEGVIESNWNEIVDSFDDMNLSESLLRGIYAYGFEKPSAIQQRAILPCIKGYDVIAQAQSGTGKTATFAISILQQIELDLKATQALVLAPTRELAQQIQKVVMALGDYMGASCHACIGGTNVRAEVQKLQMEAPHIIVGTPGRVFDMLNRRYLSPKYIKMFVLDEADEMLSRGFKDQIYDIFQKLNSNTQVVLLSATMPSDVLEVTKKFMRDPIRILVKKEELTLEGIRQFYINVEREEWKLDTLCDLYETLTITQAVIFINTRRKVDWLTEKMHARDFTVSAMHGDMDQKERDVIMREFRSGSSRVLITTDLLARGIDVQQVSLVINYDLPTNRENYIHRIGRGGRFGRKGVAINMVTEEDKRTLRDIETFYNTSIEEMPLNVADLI
Together with: 3 µM iPr-DMDA-PatA, 2 mM ADP, 2 mM phosphate
Strand | 4-mer enrichment [fold]
GGAG | 0.841
AGUU | 1.13
CACC | 0.995
AAUU | 1.37
AAAA | 1.78
CAGG | 0.843
CGGG | 0.592
AUGU | 1.07

Block 4 — method: RNA Bind-n-Seq; form: RNA; sample: in vitro; tested at: 365 nM; relative to: no-protein control; reading: higher = stronger binding
Target: RNA binding protein fox-1 homolog 2, RRM domain, GST-SBP tag (RBFOX2, Homo sapiens, UniProt O43251-10, residues 100-194)
Notes: natural RNA segment, single round, ends assumed
Constant ends, left off below: GGGAGUUCUACAGUCCGACGAUC … UGGAAUUCUCGGGUGCCAA
Strand | RBNS enrichment (R)
ACAACUUCUGACCUGUUGAGGGCAGAACAAAACUAUGCCUCCGUCCACCGUGGUGUUUCUGCAGGGCCCAGAGCUAAGAACAAACAAAGUUAUAAGAACGUACACAGUGA | 0.53
AUUUGCCCGUUUACAAUCCUAGACGGACUGGGCCAUCAUUAGCUAAUAGCCUUUCUCCCUUGCCAUGUUUCUGGAAUGAACCGUGUACCUAGAACCUCUCCUUGCCACAG | 7.93
UUUACAAAUGUAAAAAACAAAAAGUGUAUUAAUGUAUUUGUUCAGGAAAAGCUACAUACCGAAGGGCUUUUGUAUAUGAAUUCUGUGGUGGGGAGACCCAUUUGUAAUCU | 0.507
UUAUAGGAAAAAGAAGAUUCAGAGAAACAAAGGAAUGUAACCUUAUUGAUUACAUUUUUGGUGAUCACCGAGAAUUUUUUGUACUAUAUUUUAAAAAAUGUAUUCUACUG | 0.495
UUAUAGCUAAAACACUAGGAUUUAUCUGCAGUGUUCAGGGAGAUAAUUCUGCCUUUAAUUGUCUAAAACAAAAACAAAACCAGCCAACCUAUGUUACACGUGAGAUUAAA | 0.459
GGGCCUCAGAAAUUGUCUCUUUUCUGAGUUUCAAUUUGGUUCUCCUGGAUGUUUUGCUCUGUUUUGGUACCUGUAAUAUAGGGAAACACAACUUUUUUUGGGAAAGCCCU | 0.819
AGAGAGGAAAAAAAUCACCUUUUAUUUGUUUGGGUCUCAUUGUCAGAAUUAUUAUUCAGAUCAAGAAAUCUGUGUCGAUAAAACCUAAUCUCAUAUUGGAGAGUGAAUGU | 0.49
AGUCUGUUAAUUUAUCUGAAAUUGGAUUUUUUUUUAAAAAAGUAAUAAAAAAUUAAAUACUUCCCUUGAUGCUUGCUUUCUUUCCUUUGUGAAACAGGUAAACUGAGGUA | 2
